# Measurements of several laboratories.
# Each line is one published result; not all experiments were run side by side. ± gives the spread as reported.
Structure (SMILES),cell line,assay,conditions,IC50 [µM]
CCn1c2ccccc2c2cc(C(O)c3cccc4ncccc34)ccc21 (stereo not shown),sample A patient-derived glioma cells,tumour microtube number per cell,24 h,0.036
CC/C(=C(\c1ccc(O)cc1)c1ccc(OCCN(C)CCOCCOCCOCCN(C)CCOc2ccc(/C(=C(/CC)c3ccccc3)c3ccc(O)cc3)cc2)cc1)c1ccccc1,MDA-MB-231 (ER-negative),cell growth,96 h,1.95
CCCC(CCC)C(=O)[O][Pt]([NH2])([NH2])([Cl])([Cl])[O]C(=O)C(Cl)Cl,six human cancer lines,"cytotoxicity, MTT",,1.17
O=C(O)/C(Cc1ccccc1[N+](=O)[O-])=N/Nc1nc2c(s1)CS(=O)(=O)c1c-2ccc(Cl)c1Cl,CRL-2351,"cell growth, sulforhodamine B",5 days,> 20
N=C(N)Nc1nc2ccccc2o1,BPH-1,"cell growth or viability, MTT",24 h,> 500
N#Cc1cccc(-c2ccc(=O)n(Cc3cccc(-c4ncc(OCC5CCN(CCCCCC(=O)Nc6cccc7c6C(=O)N(C6CCC(=O)NC6=O)C7=O)CC5)cn4)c3)n2)c1 (stereo not shown),Hs746T,"cell growth or viability, CCK-8",72 h,0.0516
Cc1cc(O)cc(O)c1C(=O)c1c2c3c(c(O)cc(C)c3oc1=O)C(=O)c1c(O)cc(O)cc1-2,human cancer cell lines,"cell growth, SRB",72 h,2.37 to 7.07
CN1CCN(C(=O)c2cn(C34CCCC(C)(CCC5C3CC5(C)C)C4)nn2)CC1 (stereo not shown),NCM460,"cell growth or viability, CCK-8",72 h,33
COc1cc2ncnc(Nc3ccc(F)c(Cl)c3)c2cc1NC(=O)/C=C/CN(C)C,HCC827,"cell growth or viability, SRB",72 h,< 0.001
COc1cc(-c2cc(=O)c3c(O)cc(OC4OC(COC5OC(C)C(O)C(O)C5O)C(O)C(O)C4O)cc3o2)ccc1O (stereo not shown),HCT-116 p53+/+,"cell viability, resazurin reduction",72 h,> 100
C=C1CCC(=O)C(C)CCC2C1CC2(C)C(=O)C=CC(C)(C)O (stereo not shown),KPC,"cell viability, CCK-8",72 h,12 ± 1.65
COCCNc1nc(-c2nccn2C)nc2sc(-c3cccc(OC)c3Cl)c(-c3ccccc3)c12,PANC-1 (KRAS G12D),"Western blot, refers to: phospho-MEK, ERK1/2 and Akt","6 h, together with: EGF 15 min",1 to 3
COc1ccc(C[C@H]2COC(=O)[C@@H]2Cc2ccc(OCCCCCCCCC(=O)NO)c(OC)c2)cc1OC,KU812,"cell growth or viability, CCK-8",48 h,3.72
CC/C(=C(/c1ccc(O)cc1)c1ccc(OCCN(C)CCOCCOCCOCCOCCOC)cc1)c1ccccc1,MDA-MB-231 (ER-negative),cell growth,96 h,1.94
N#Cc1cccc(-c2ccc(=O)n(Cc3cccc(-c4ncc(OCC5CCN(CCCCCCCCC(=O)Nc6cccc7c6C(=O)N(C6CCC(=O)NC6=O)C7=O)CC5)cn4)c3)n2)c1 (stereo not shown),Hs746T,"cell growth or viability, CCK-8",72 h,0.103
Cc1cc(/C=C/C#N)cc(C)c1Oc1cc(Nc2ccc(C#N)cn2)nc2ccncc12,H69AR (multidrug resistant),,48 h,> 120
N#Cc1cccc(-c2ccc(=O)n(Cc3cccc(-c4ncc(OCC5CCN(CC(=O)NCCOCCOCCOCCNc6ccc7c(c6)C(=O)N(C6CCC(=O)NC6=O)C7=O)CC5)cn4)c3)n2)c1 (stereo not shown),Hs746T,"cell growth or viability, CCK-8",72 h,0.00772
CN1CCN(c2ccc(Nc3ncc(Cl)c(Nc4ccccc4NS(=O)(=O)C4CC4)n3)cc2)CC1,Ba/F3 EGFR L858R/T790M/C797S,"cell growth, CCK-8",48 h,0.018
N#Cc1c(-c2ccc(Cl)cc2)cc(-c2cccc3ccccc23)nc1Nc1ccc(Nc2nc(-c3cccc4ccccc34)cc(-c3ccc(Cl)cc3)c2C#N)cc1,U-937,"cell growth or viability, MTT",72 h,1.44
CC1(N)CCN(c2nc(N(Cc3ccccc3)Cc3ccccc3)nc3c2ncn3Cc2ccccc2)CC1,AGS,"cell growth or viability, WST-1",72 h,3.5
N#Cc1c(F)c(Cl)c2nc(SCc3ccc4ccccc4c3)nc(N)c2c1F,SGC-7901,"cell growth or viability, MTT",96 h,6.55
[Cl][Cu][Cl].c1ccc(-c2nnc(-c3ccc4c(c3)OCO4)[nH]2)nc1,T24,"cell growth or viability, MTT",24 h,3.45
C=C(C)[C@@H]1CC[C@]2(C(=O)O)CC[C@]3(C)[C@H](CC[C@@H]4[C@@]5(C)CC[C@H](O[C@@H]6O[C@@H](C)[C@H](O)[C@@H](OC)[C@H]6O)C(C)(C)[C@@H]5CC[C@]43C)[C@@H]12,human Skin fibroblast,cell growth or viability,48 h,41
Cc1cn([C@@H]2O[C@H](CO)[C@@H](O)[C@H](F)[C@H]2O)c(=O)[nH]c1=O,FM3A,cell growth or viability,,> 200
CCCCCCCCSc1nc(N)c2c(F)c(C#N)c(F)c(F)c2n1,SGC-7901,"cell growth or viability, MTT",96 h,73.5
CCCC(CCC)C(=O)[O][Pt]([NH2])([NH2])([Cl])([Cl])[O]C(=O)c1ccccc1OC(C)=O,six human cancer lines,"cytotoxicity, MTT",,1.18
CC(=O)NCCCN(C)CCCNc1cccc2c1C(=O)c1cccc(NCCCN(C)CCCNC(C)=O)c1C2=O,ASF-4-4L2,"cell proliferation, CCK-8",48 h,5.4
O=C1CCC(N2C(=O)c3cccc(NCC(=O)N4CCN(c5ccc(Nc6nccc(Oc7ccccc7)n6)cc5)CC4)c3C2=O)C(=O)N1 (stereo not shown),Mino,,72 h,0.077
O=C(Nc1ccn([C@@H]2O[C@H](CO)[C@@H](O)[C@H](F)[C@H]2O)c(=O)n1)c1ccccc1,FM3A,cell growth or viability,,> 200
C=C1C(=O)OC2CC3=C[C@@H](C/C(C)=C/C(OC(=O)Cc4cccc5ccccc45)[C@H]12)OC3=O (stereo partly shown),U-937,"cell growth or viability, MTT",24 h,0.18
N#Cc1cccc(-c2ccc(=O)n(Cc3cccc(-c4ncc(OCC5CCN(CCCCC(=O)Nc6ccc7c(c6)C(=O)N(C6CCC(=O)NC6=O)C7=O)CC5)cn4)c3)n2)c1 (stereo not shown),Hs746T,"cell growth or viability, CCK-8",72 h,0.00721
COC(=O)[C@H]1[C@H]2C[C@H]3O[C@@]4(CCN3C[C@H]2C[C@@H](OC(=O)c2cc(OC)c(OC)c(OC)c2)[C@@H]1OC)C(=O)Nc1cc(OC)c(-c2ccc(F)cc2)cc14,SUP-T1,"cell growth or viability, trypan blue",72 h,7.01
CC1=C(C(=O)c2ccc([N+](=O)[O-])cc2)C(=O)c2ccccc2C1=O,MRC-5,cytotoxicity,,24
Cc1cc(C#N)cc(C)c1Oc1cc(Nc2ccc(C#N)cn2)nc2cnccc12,H69AR (multidrug resistant),,48 h,> 127
C=C(C)[C@@H]1CC[C@]2(C(=O)OCO/N=[N+](\[O-])N3CCCC3)CC[C@]3(C)[C@H](CC[C@@H]4[C@@]5(C)CC[C@H](OC(C)=O)C(C)(C)[C@@H]5CC[C@]43C)[C@@H]12,HELF,"cell growth or viability, MTT",72 h,17.8
C[N+]1(C)CC[NH2+][Pt-2]1([OH])([Cl])([Cl])[O]C(=O)CCC(=O)OCCOC(=O)CCC(=O)[O][Pt-2]1([OH])([Cl])([Cl])[NH2+]CC[N+]1(C)C,SW1573,cell growth or viability,96 h,144
COCCOCCSc1nc(N)c2c(F)c(C#N)c(F)c(Cl)c2n1,SGC-7901,"cell growth or viability, MTT",96 h,5.84
CCN(CC)CCN1C(=O)c2ccc3c4cccc5c(N6CCNCC6)ccc(c6ccc(c2c36)C1=O)c54,"A549, PC-3, HL-60","cytotoxicity, SRB","72 h, range over three lines",3.1 to 7.4
COc1ccc(CN2C[C@H](O)[C@H](O)[C@@H]2CO)cc1,HCT116 p53-/-,MTS,72 h,> 200
CC12CCCC(NS(=O)(=O)C3CCN(Cc4ccccc4)C3)(C1)C1CC(C)(C)C1CC2 (stereo not shown),NCM460,"cell growth or viability, CCK-8",72 h,43.7
CCC1=C(CC)C2=[N+]3C1=Cc1c(CC)c(CC)c4[n]1[Ir-3]31([c]3n(C(C)C)cc[n+]3C(C)C)([c]3n(C(C)C)cc[n+]3C(C)C)[n]3c(c(CC)c(CC)c3=CC3=[N+]1C(=C4)C(CC)=C3CC)=C2.F[P-](F)(F)(F)(F)F,HCC827,"cell growth or viability, MTT",72 h,0.69
CCCCN(CCCC)CC(O)COc1c2ccoc2c(OC)c2oc(CC)cc(=O)c12 (stereo not shown),HTB-140,"viability, MTT",72 h,17.5 ± 3.4
COC(=O)[C@H]1[C@H]2C[C@H]3O[C@@]4(CCN3C[C@H]2C[C@@H](OC(=O)c2cc(OC)c(OC)c(OC)c2)[C@@H]1OC)C(=O)Nc1cc(OC)c(Br)cc14,SUP-T1,"cell growth or viability, trypan blue",72 h,19.2
COc1ccc2c(c1OC)OCc1sc(NN=C(Cc3ccccc3[N+](=O)[O-])C(=O)O)nc1-2 (mixture of isomers),CRL-2351,"cell growth, sulforhodamine B",5 days,> 20
CC(C)C1OC(=O)C(NC(=O)c2cccc(O)c2)C(C)OC(=O)C(C(C)C)OC(=O)C(C)(C)C(=O)C(Cc2ccccc2)OC1=O (stereo not shown),SGC-7901,"cell viability, CCK-8",72 h,> 20
COc1cc2c(cc1C(C)(C)O)CCC1C(C)(C)c3nc(C)ncc3C[C@]21C (mixture of isomers),NCM460,"cell growth or viability, SRB",24 h,> 200
CC(=O)[O][Pt]([Cl])([Cl])[O]C(=O)CCCc1ccccc1.N.N,seven cancer cell lines,cytotoxicity,mean over panel,6.42
Cc1cnc2c(ccc3c(C)c(C)cnc32)c1C.O=C([O-])Cc1ccccc1Nc1c(Cl)cccc1Cl.O=C([O-])Cc1ccccc1Nc1c(Cl)cccc1Cl.[Mn+2],HMLER-shEcad,MTT,72 h,0.137 ± 0.015
COc1c(O)cc2oc3cc4c(c(O)c3c(=O)c2c1CC(O)C(C)(C)O)CC(O)O4 (stereo not shown),"HL-60, SMMC-7721, A549, MCF7, SW480",cytotoxicity,all lines,> 40
O=C(Nc1ccc(-c2noc(C3CC3)n2)c(Cl)c1)c1cccs1,MRC5 lung fibroblasts,"cytotoxicity, LDH release",,> 30
O=c1[nH]c(=O)n([C@@H]2O[C@H](CO)[C@@H](O)[C@H](F)[C@H]2O)cc1F,FM3A,cell growth or viability,,> 200
[Cl][Cu-][c]1n(-c2c(C(c3ccccc3)c3ccccc3)cc(C(c3ccccc3)c3ccccc3)cc2C(c2ccccc2)c2ccccc2)c2c([n+]1-c1c(C(c3ccccc3)c3ccccc3)cc(C(c3ccccc3)c3ccccc3)cc1C(c1ccccc1)c1ccccc1)-c1cccc3cccc-2c13,CHO,"cell growth or viability, MTT",72 h,> 50
